Assay results of several laboratories.
Each line is one published result; not all experiments were run side by side. “And” joins repeats or separate records; there may be more than shown. ± marks the error that the study gave.

SMILES | assay | system | conditions | how to read | measurement | result
Cc1ccc(C(=O)N(CCCN)C(c2nc3snc(C)c3c(=O)n2Cc2ccccc2)C(C)C)cc1 (stereo not shown) |  | human patients, plasma | intravenous, 13 mg/day, day 3 of induction course, geometric mean |  | plasma concentration at 24 h | 19 ng/mL
COc1cc2c(cc1OC)CN(CCc1ccc(NC(=O)c3cc(OC)c(OC)cc3NC(=O)c3cnc4ccccc4c3)cc1)CC2 |  | human, plasma | intravenous infusion, 5.9 mg/kg, 60 min |  | plasma concentration | 2360 nM
CO[C@H]1/C=C/O[C@@]2(C)Oc3c(C)c(O)c4c(O)c(c(/C=N/N5CCN(C)CC5)c(O)c4c3C2=O)NC(=O)/C(C)=C\C=C\[C@H](C)[C@H](O)[C@@H](C)[C@@H](O)[C@@H](C)[C@H](OC(C)=O)[C@@H]1C |  | healthy human subjects, plasma | oral, dose not given, 24 h, first dose, added: glecaprevir and pibrentasvir single dose |  | plasma concentration at 24 h | 206 ng/mL
CN1CCN(c2ccc(OC(F)(F)F)c(Nc3ncc4c(n3)-c3c(c(C(N)=O)nn3CCO)CC4)c2)CC1 | LC-MS/MS | human, plasma | oral, 12 mg/m2, 4 h post-dose |  | plasma concentration | 59.5 ng/mL and 98.5 ng/mL
C[C@H](CCC(=O)NCC(=O)O)[C@H]1CC[C@H]2[C@@H]3CC[C@@H]4C[C@H](O)CC[C@]4(C)[C@H]3C[C@H](O)[C@]12C |  | healthy human volunteers, plasma | oral, dose not given, 0 h, control phase, probe drugs alone |  | plasma concentration | 290 ± 104 nM
Cn1cc(Nc2nccc(-c3ccc4c(c3)CN(C3COC3)CC[C@H]4NC(=O)c3cn(C(C)(C)C)nn3)n2)cn1 |  | human, whole blood | 150 mg twice daily, day 14 | relative to: pre-dose baseline | plasma cell count change | -79.2%
O=C(O)CCCCCCCCC(=O)O |  | healthy human volunteers, plasma | dose not given, 0 h, baseline phase, no drug |  | plasma concentration | 59.7 ± 7.5 nM
C/C=C/C[C@H](C)[C@@H](OC)[C@@H](C)[C@H](O)C[C@H]1OC(=O)C=C[C@H]1CC |  | human |  |  | plasma protein binding | 87%
C[C@@H](Oc1ccc(S(C)(=O)=O)cc1C(=O)N1C[C@@H]2C[C@]2(c2cc(C(F)(F)F)on2)C1)C(F)(F)F | item: 14C radioactivity | human, plasma | oral, 25 mg | relative to: AUC(0-168 h) | plasma radioactivity share | 48.9%
CC(C)CCC[C@@H](C)[C@H]1CC[C@H]2[C@@H]3C(O)CC4=CC(=O)CC[C@]4(C)[C@H]3CC[C@]12C (stereo partly shown) |  | healthy human volunteers, plasma | oral, dose not given, 0 h, control phase, probe drugs alone |  | plasma concentration | 90.2 ± 18.2 nM
